Measurements from different studies.
Compare with care: the assays were run in different laboratories.

| SMILES | tested on | test | test system | setting | how to read | measurement | value |
| --- | --- | --- | --- | --- | --- | --- | --- |
| CCN(CC)CC(=O)Nc1cccc(-n2cc(-c3ccc4ccc(-c5cn(-c6cccc(NC(=O)CN(CC)CC)c6)nn5)cc4c3)nn2)c1 | RCC4 | PCR array, refers to: F3 | – | 5 x IC50, 4 h, normoxia | reference: untreated | fold regulation | -1.46 |
| COC1CN([C@H]2CC[C@H]([C@@]3(C)Oc4c(Cl)cc(C(=O)NCc5c(SC)cc(C)[nH]c5=O)c(C)c4O3)CC2)C1 | – | RNA-seq, refers to: RAB20 mouse homolog | mouse, HT-1376 xenograft, whole blood | dose not given | reference: vehicle | log2 fold change | 0.00431 |
| Cc1ncsc1-c1ccc(C(C)NC(=O)C2CC(O)CN2C(=O)C(NC(=O)CCCCCCCCCCN2CCCC(Nc3ncc(Cl)c(Nc4ccccc4S(=O)(=O)C(C)C)n3)C2)C(C)(C)C)cc1 (stereo not shown) | 22Rv1 | RNA-seq, refers to: PAPOLG mRNA | – | concentration not given | reference: DMSO | log2 fold change | -1.77 |
| C=C(NC(=O)c1csc(-c2nc3c(cc2O)-c2nc(cs2)C(=O)NC(C(C)O)C(=O)NC(=C(C)OC)c2nc(cs2)C(=O)NC2c4nc(cs4)C(=O)NC(COC(=O)c4c5c6c(cccc6n4O)COC(=O)C(OC4CC(C)(O)C(N(C)C)C(C)O4)C2OC5)c2nc-3cs2)n1)C(N)=O (stereo not shown) | – | – | Sprague-Dawley rats, both sexes, plasma | intravenous infusion, 18 mg/kg | – | AUC(0-inf) | 5570 ng·h/mL |
| Nc1ncc(-c2cc(-c3cnn(CC(F)(F)F)c3)ncc2F)nc1C(=O)NC1CNCC(F)C1 (stereo not shown) | MLK2 | KINOMEscan | – | 1 µM | reference: DMSO control | remaining binding | 71% |
| CNS(=O)(=O)Nc1nccc(Cc2c(C)c3ccc(Oc4ncccc4F)cc3oc2=O)c1F | EFE-184 | cell viability | – | 7 days | – | IC50 | > 1000 nM |
| O=C(C[Se]C(=O)C12CC3CC(CC(C3)C1)C2)Nc1cccc(C(F)(F)F)c1 | NCI60 CNS subpanel | NCI60 five-dose screen | – | – | – | mean TGI | 5300 nM |
| CCCCCCCCCCCCCCCCCCOc1ccccc1CCOP(=O)([O-])OCC[N+](C)(C)C | HOP-62 | cell growth or viability, SRB | – | 10 µM | – | inhibition | 44.7% |
| O=C1CCCC2=C1C(c1c[nH]c3ccccc13)c1cc(Br)ccc1O2 (stereo not shown) | 3T3-L1 preadipocytes | adipogenesis, Oil Red O staining | – | IC20, 14 days, single replicate | – | lipid content | 0.591 OD492 |
| Cn1ncc2cc(-c3cncc(Cl)c3N3CCC4(CCNC4=O)CC3)ccc21 | LS174T | gene expression, microarray, refers to: AQP1 mRNA | – | concentration not given, 4 h | reference: untreated cells | log2 fold change | 1.2 |
| C=CC(=O)Nc1cccc(Cn2ncc3cnc(Nc4cnn(CCOC)c4)nc32)c1 | BMPR1A human | binding, KINOMEscan | – | 100 nM | lower = stronger binding | percent of control | 88% |
| CN1CCCNC(=O)c2cccc(c2)C(=O)NCCCN(C)CCCNc2cccc3c2C(=O)c2cccc(c2C3=O)NCCC1 | SAS | RNA-seq, refers to: MDC1-AS1 mRNA | – | 1 µM, 6 h | reference: untreated cells | log2 fold change | 1.25 |
| CC(C)c1ccc(N(C)c2ccc3c(c2)OCC[C@H]3CNc2cnccc2C(=O)O)cc1 | 143B | cell viability, CellTiter-Glo | – | 7 days | – | IC50 | 14.4 nM |

Some of these lines once more:
| SMILES | tested on | test | test system | setting | how to read | measurement | value |
| --- | --- | --- | --- | --- | --- | --- | --- |
| CCCCCCCCCCCCCCCCCCOc1ccccc1CCOP(=O)([O-])OCC[N+](C)(C)C | HOP-62 | cell growth or viability, SRB | – | 10 µM | – | inhibition | 44.7% |
